Published values pooled from the literature.
Each line is one published result; not all experiments were run side by side. ± gives the spread as reported.
TP53 M133L/N239Y/N268D/V203A/Y220C DNA-binding domain: Cellular tumor antigen p53, DNA-binding domain (TP53, Homo sapiens, UniProt P04637, M133L/N239Y/N268D/V203A/Y220C)

Cc1nc(C#N)cnc1Cl
time to maximal ΔTm (TP53 M133L/N239Y/N268D/V203A/Y220C DNA-binding domain; differential scanning fluorimetry; 1 mM, 20 °C): 3 h

O=C(O)COc1ccc(Br)cc1C=NNC(=O)Cc1ccccc1 (mixture of isomers)
latency to forelimb clonus (mouse, pilocarpine-induced seizures; oral, 20 mg/kg, together with: pilocarpine 300 mg/kg i.p.): 18.4 ± 0.41 min

Cc1nc(Cl)cnc1C#N
delta Tm (TP53 M133L/N239Y/N268D/V203A/Y220C DNA-binding domain; DSF; 1 mM, 4 h, 20 °C): 1.28 °C

O=C1Nc2ccc(S(=O)(=O)Nc3ccccc3)cc2C1=C1CCCC1
inhibition (CDK2 (Homo sapiens, UniProt P24941); kinase activity, inhibitor, kinase panel profiling; concentration not given): 32%

CCc1nc(C#N)c(Cl)nc1Cl
ΔTm (Cellular tumor antigen p53, DNA-binding domain (TP53, Homo sapiens, UniProt P04637, M133L/N239Y/N268D/V203A); differential scanning fluorimetry; 1 mM, 30 min): -4.85 °C

Cc1ccc(Oc2ccc(-c3ccn4c(CC5CC5)nnc4c3C(F)(F)F)cc2F)c(C)n1
concentration (male Sprague-Dawley rat, plasma; subcutaneous, 10 mg/kg, 4 h, single dose): 59 ng/mL

Some of these lines once more:
Cc1nc(C#N)cnc1Cl
time to maximal ΔTm (TP53 M133L/N239Y/N268D/V203A/Y220C DNA-binding domain; differential scanning fluorimetry; 1 mM, 20 °C): 3 h
